Experimental data pooled from the literature.
Several values in a cell are separate wells, animals, samples, runs or records. ± gives the spread as reported.
UniProt Q92887, sequence (whole entry, looked up): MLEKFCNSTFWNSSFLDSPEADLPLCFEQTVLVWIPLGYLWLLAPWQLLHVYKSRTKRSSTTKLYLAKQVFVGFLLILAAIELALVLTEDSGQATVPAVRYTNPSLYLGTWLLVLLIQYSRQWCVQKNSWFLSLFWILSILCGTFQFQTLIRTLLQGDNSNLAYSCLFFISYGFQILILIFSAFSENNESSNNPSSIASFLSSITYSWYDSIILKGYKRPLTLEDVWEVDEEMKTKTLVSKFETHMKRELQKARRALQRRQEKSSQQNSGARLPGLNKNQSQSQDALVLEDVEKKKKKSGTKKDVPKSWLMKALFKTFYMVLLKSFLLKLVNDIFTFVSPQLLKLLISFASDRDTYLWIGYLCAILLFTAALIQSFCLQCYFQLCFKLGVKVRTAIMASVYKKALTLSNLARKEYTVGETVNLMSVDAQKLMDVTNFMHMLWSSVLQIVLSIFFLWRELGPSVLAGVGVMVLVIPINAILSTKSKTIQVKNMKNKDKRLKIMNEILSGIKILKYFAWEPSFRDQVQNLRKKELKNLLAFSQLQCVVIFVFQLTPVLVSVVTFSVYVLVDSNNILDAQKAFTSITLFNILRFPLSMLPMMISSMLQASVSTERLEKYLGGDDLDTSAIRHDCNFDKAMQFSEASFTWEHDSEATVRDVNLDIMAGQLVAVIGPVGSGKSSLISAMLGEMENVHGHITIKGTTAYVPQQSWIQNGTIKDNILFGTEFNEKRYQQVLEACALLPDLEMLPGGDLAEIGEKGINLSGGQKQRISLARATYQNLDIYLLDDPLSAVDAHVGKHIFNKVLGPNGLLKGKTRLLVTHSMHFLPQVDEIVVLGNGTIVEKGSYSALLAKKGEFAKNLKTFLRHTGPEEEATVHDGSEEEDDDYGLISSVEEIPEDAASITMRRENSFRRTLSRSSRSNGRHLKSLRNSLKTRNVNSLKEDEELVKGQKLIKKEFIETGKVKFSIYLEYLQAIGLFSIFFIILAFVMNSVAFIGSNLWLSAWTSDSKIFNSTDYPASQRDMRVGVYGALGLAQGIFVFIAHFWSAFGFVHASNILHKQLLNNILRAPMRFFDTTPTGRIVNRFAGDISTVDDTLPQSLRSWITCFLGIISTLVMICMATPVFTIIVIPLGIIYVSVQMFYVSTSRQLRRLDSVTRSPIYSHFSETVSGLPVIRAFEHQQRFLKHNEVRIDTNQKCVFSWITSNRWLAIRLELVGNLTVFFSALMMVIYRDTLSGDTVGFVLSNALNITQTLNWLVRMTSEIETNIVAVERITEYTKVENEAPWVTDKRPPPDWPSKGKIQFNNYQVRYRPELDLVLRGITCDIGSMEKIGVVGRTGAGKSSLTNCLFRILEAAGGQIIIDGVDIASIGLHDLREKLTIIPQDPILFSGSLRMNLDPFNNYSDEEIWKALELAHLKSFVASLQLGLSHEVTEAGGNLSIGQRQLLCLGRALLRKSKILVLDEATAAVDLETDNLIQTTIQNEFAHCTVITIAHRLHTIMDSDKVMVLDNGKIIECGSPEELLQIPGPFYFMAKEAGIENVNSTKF
UniProt P05177, sequence (whole entry, looked up): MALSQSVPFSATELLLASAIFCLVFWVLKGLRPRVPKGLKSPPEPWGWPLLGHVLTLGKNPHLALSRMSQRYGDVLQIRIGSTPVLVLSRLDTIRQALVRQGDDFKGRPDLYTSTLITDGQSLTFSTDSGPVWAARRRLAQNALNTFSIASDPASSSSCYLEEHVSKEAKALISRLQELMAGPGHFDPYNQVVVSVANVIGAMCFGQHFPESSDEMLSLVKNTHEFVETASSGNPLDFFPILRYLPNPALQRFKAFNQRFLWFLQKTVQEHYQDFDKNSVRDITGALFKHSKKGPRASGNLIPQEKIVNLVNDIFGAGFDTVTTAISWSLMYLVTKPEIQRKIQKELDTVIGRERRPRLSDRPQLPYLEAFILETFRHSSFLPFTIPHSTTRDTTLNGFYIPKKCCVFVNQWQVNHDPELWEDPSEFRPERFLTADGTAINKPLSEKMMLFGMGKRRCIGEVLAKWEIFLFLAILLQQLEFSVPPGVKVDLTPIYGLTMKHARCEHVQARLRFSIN

Compound | target or system | assay | system | setting | scale | quantity | result
O=C1C2CC3CC1CC(C(=O)N1CCN(c4ccc([N+](=O)[O-])c5ncccc45)CC1)(C3)C2 | Salmonella typhimurium | Ames test | TA100 | 0.31 µg/well, with S9 | reference: vehicle | revertant fold increase | 1.1
O=C(c1cc(-c2ccccc2)n(-c2ccccc2)n1)N1CCC(N2CCCC2)CC1 | HeLa | cell growth or viability |  |  |  | CC50 | > 100 µM
CC(C)CC(=O)Nc1ccc(C2CCCCC2)cc1 |  | hepatocyte stability | cryopreserved human hepatocytes | 1 µM |  | hepatic clearance | 15 mL/min/kg
Cc1n[nH]c(C)c1CCCOc1cc(C(=O)NCCCCC(NC(=O)CN2CCN(CC(=O)[O-])CCN(CC(=O)[O-])CCN(CC(=O)[O-])CC2)C(=O)NCC2CCC(C(=O)NC(Cc3ccc4ccccc4c3)C(=O)NCCCCC(NC(=O)NC(CCC(=O)O)C(=O)O)C(=O)O)CC2)ccc1F.[177Lu+3] (centres unmarked) | 22Rv1 tumour model |  | host not given, blood | 96 h, tumour-bearing |  | tracer uptake | 0.11 %ID/g
CN1CCCNC(=O)c2cccc(c2)C(=O)NCCCN(C)CCCNc2cccc3c2C(=O)c2cccc(c2C3=O)NCCC1 | HeLa | cell growth or viability, CCK-8 |  | 15 nM, 48 h |  | viability | 94.8%
O=C(c1ccc(OCCN2CCCCC2)cc1)c1c(-c2ccc(O)cc2)sc2cc(O[C@@H]3O[C@H](C(=O)O)[C@@H](O)[C@H](O)[C@H]3O)ccc12 | ATP-binding cassette sub-family C member 2 (ABCC2, Homo sapiens, UniProt Q92887) | substrate | Sf9 membrane vesicles | pH 7 |  | intrinsic clearance | 79.3 µL/min/mg protein
CC(C)CC(=O)Nc1ccc([C@H]2[C@@H](F)[C@@H](F)C[C@@H](F)[C@H]2F)cc1 |  | hepatocyte stability | cryopreserved mouse hepatocytes | 1 µM |  | hepatic clearance | 36 mL/min/kg
CC(=O)N[C@H](C(=O)N[C@H](C(=O)N[C@@H](CCCNC(=N)N)C(=O)N[C@@H](CC(N)=O)C(=O)N[C@@H](CC(=O)O)C(=O)N[C@H](C(=O)N1CCC[C@@H]1C(=O)N1CCC[C@H]1C(=O)N[C@@H](CC(=O)O)C(=O)N[C@@H](CO)C(=O)N[C@@H](CC(C)C)C(=O)N[C@@H](CC(C)C)C(=O)N[C@H](C(=O)N[C@@H](Cc1ccccc1)C(N)=O)C(C)C)C(C)C)[C@@H](C)O)C(C)C | HEK-293T | subcellular fractionation LC-MS | nuclear fraction | 20 µM, 2 h |  | peptide amount | not detected
O=C(NCCO)c1ccc([C@H]2[C@@H](F)[C@@H](F)C[C@@H](F)[C@H]2F)cc1 |  | liver microsome stability | rat liver microsomes | 1 µM |  | hepatic clearance | 6.1 mL/min/kg
O=C1NC2(CC2)COc2ncc(F)cc2[C@H]2COCCN2c2ccn3ncc1c3n2 | Salmonella typhimurium | Ames test | TA98 | 50 µg/plate, 48 h, together with: rat liver S9 |  | revertant colonies | 22 ± 5 revertants/plate
CC(C)OCCOCc1ccc(OCC(O)CN(N=O)C(C)C)cc1 (centres unmarked) | Escherichia coli | Ames test | WP2 uvrA | 158 µg/plate, 30 % hamster S9 | reference: solvent control | revertant fold increase | 0.9 fold
CC(C)C[C@@H]1NC(=O)[C@H](CO)NC(=O)[C@H](CC(=O)O)NC(=O)[C@@H]2CCCN2C(=O)[C@H]2CCCN2C(=O)[C@H](C(C)C)NC(=O)[C@H](CC(=O)O)NC(=O)[C@H](CC(N)=O)NC(=O)[C@H](CCCNC(=N)N)NC(=O)[C@H]([C@@H](C)O)NC(=O)[C@H](C(C)C)NC(=O)CCNC(=O)CCNC(=O)[C@H](Cc2ccccc2)NC(=O)[C@H](C(C)C)NC(=O)[C@H](CC(C)C)NC1=O | HEK-293T | subcellular fractionation LC-MS | nuclear fraction | 20 µM, 24 h |  | peptide amount | not detected
N#C[C@@H]1CC(F)(F)CN1C(=O)CNC(=O)c1ccnc2c(NC(=O)[C@@H](N)CCCCNC(=O)CCOCCOCCOCCOCCOCCOCCNC(=O)CN3CCN(CC(=O)[O-])CCN(CC(=O)[O-])CCN(CC(=O)[O-])CC3)cccc12.[177Lu+3] | U-87 MG tumour model |  | host not given, bone | 4 h, tumour-bearing |  | tracer uptake | 0.37 %ID/g
CCN(CC)CC#CCNc1ccnc2cc(Cl)ccc12 | Salmonella typhimurium | mini-Ames test | TA102 | 125.0 µg/well, without S9 |  | revertants per well | 73
N#C[C@@H]1CCCN1C(=O)CNC(=O)c1ccnc2ccc(OCCCN3CCN(C(=O)CCc4ccc5c(c4)CN4CCN6CC(=O)[O][68Ga-]([O]C(=O)C4)([O]5)[O]c4ccc(CCC(=O)N5CCN(CCCOc7ccc8nccc(C(=O)NCC(=O)N9CCC[C@H]9C#N)c8c7)CC5)cc4C6)CC3)cc12 | U-87 MG tumour model |  | host not given, blood | 1 h, tumour-bearing |  | tracer uptake | 2.65 %ID/g
O=C(CC1CCOCC1)Nc1ccc([C@H]2[C@@H](F)[C@@H](F)C[C@@H](F)[C@H]2F)cc1 |  | liver microsome stability | rat liver microsomes | 1 µM |  | hepatic clearance | 23 mL/min/kg
Cc1cc(=O)c2c(O)c3c(O[C@@H]4O[C@H](CO)[C@@H](O)[C@H](O)[C@H]4O)cc(O)cc3cc2o1 | HepaRG co-cultured with HK-2 | MTT |  | 133.33 µM, 48 h | reference: untreated control | cell viability | 53.8 ± 6.06%
CNC(=O)C1CCCN(C(=O)C2CC3CCC2N3C(=O)[C@@H]2C[C@@H](O)CN2C(=O)NCc2cccc(Cl)c2F)C1 (mixture of isomers) | Cytochrome P450 1A2 (CYP1A2, Homo sapiens, UniProt P05177) | preincubation without NADPH | human | 5.56 µM | reference: negative control | remaining activity | 93.8%
COc1cc(/C=C/C=C2\SC(=S)NC2=O)ccc1O | HeLa | CellTiter-Glo |  | 40 µM, 24 h, unit not given | reference: untreated | viability | 0.866 and 0.911
COc1cccc(OC)c1-c1cc(C(=O)NC2(C(=O)O)C3CC4CC(C3)CC2C4)nn1-c1ccc(C(=O)N(C)CCOCCN(C)C(=O)[C@H](CCCCNC(=O)[C@H](CC(C)C)NC(=O)C2OC2C(=O)O)NC(=O)CN2CCN(CC(=O)[O-])CCN(CC(=O)[O-])CCN(CC(=O)[O-])CC2)cc1C(C)C.[177Lu+3] (mixture of isomers) | HT-29 tumour model |  | host not given, stomach | 72 h, tumour-bearing |  | tracer uptake | 0.072 %ID/g
Nc1nc2cc(C(=O)c3ccc(F)cc3)ccc2[nH]1 | Salmonella typhimurium | Ames preincubation test | TA1535 | 39.0 µg per plate, 3 days, without S9 |  | revertants | 18.3 revertants per plate
Cc1ccc(-c2ccc([C@H]3[C@@H](F)[C@@H](F)C[C@@H](F)[C@H]3F)cc2)cn1 |  | hepatocyte stability | cryopreserved human hepatocytes | 1 µM |  | hepatic clearance | 9.2 mL/min/kg
N#C[C@@H]1CC(F)(F)CN1C(=O)CNC(=O)c1ccnc2c(NC(=O)CCOCCOCCOCCOCCOCCOCCNC(=O)[C@H](CCCCNC(=O)CN3CCN(CC(=O)[O-])CCN(CC(=O)[O-])CCN(CC(=O)[O-])CC3)NC(=O)CCCc3ccc(I)cc3)cccc12.[177Lu+3] | U-87 MG tumour model |  | host not given, heart | 24 h, tumour-bearing |  | tracer uptake | 0.25 %ID/g
CNC(=O)c1ccc(C2CCCCC2)cc1 |  | liver microsome stability | rat liver microsomes | 1 µM |  | hepatic clearance | 52 mL/min/kg
C=C(NC(=O)c1csc(-c2nc3c(cc2O)-c2nc(cs2)C(=O)NC(C(C)O)C(=O)NC(=C(C)OC)c2nc(cs2)C(=O)NC2c4nc(cs4)C(=O)NC(COC(=O)c4c5c6c(cccc6n4O)COC(=O)C(OC4CC(C)(O)C(N(C)C)C(C)O4)C2OC5)c2nc-3cs2)n1)C(N)=O (centres unmarked) |  |  | Sprague-Dawley rat, female, plasma | intravenous infusion, 18 mg/kg single dose |  | volume of distribution | 27.8 L/kg
N#CCNC(=O)c1ccc([C@H]2[C@@H](F)[C@@H](F)C[C@@H](F)[C@H]2F)cc1 |  | liver microsome stability | cynomolgus liver microsomes | 1 µM |  | hepatic clearance | 11 mL/min/kg
N#Cc1cc(NC(=O)c2cc(-c3ccccc3)n(-c3ccccc3)n2)ccc1N1CCOCC1 | HeLa | cell growth or viability |  |  |  | CC50 | > 50 µM
O=C(Nc1ccc(C2CCCCC2)cc1)C1(N2CCOCC2)CC1 |  | hepatocyte stability | cryopreserved mouse hepatocytes | 1 µM |  | hepatic clearance | 51 mL/min/kg
CC(C)(C)NCC(SS(=O)(=O)O)c1ccccc1 (centres unmarked) | Schistosoma mansoni | perfusion day 52 | infected Swiss Webster mice | 400 mg/kg single dose, dosed day 7 post-infection | reference: vehicle control | body weight decrease | -0.238%

For quick reference, copied from above:
Compound | target or system | assay | system | setting | scale | quantity | result
C=C(NC(=O)c1csc(-c2nc3c(cc2O)-c2nc(cs2)C(=O)NC(C(C)O)C(=O)NC(=C(C)OC)c2nc(cs2)C(=O)NC2c4nc(cs4)C(=O)NC(COC(=O)c4c5c6c(cccc6n4O)COC(=O)C(OC4CC(C)(O)C(N(C)C)C(C)O4)C2OC5)c2nc-3cs2)n1)C(N)=O (centres unmarked) |  |  | Sprague-Dawley rat, female, plasma | intravenous infusion, 18 mg/kg single dose |  | volume of distribution | 27.8 L/kg
N#CCNC(=O)c1ccc([C@H]2[C@@H](F)[C@@H](F)C[C@@H](F)[C@H]2F)cc1 |  | liver microsome stability | cynomolgus liver microsomes | 1 µM |  | hepatic clearance | 11 mL/min/kg
N#Cc1cc(NC(=O)c2cc(-c3ccccc3)n(-c3ccccc3)n2)ccc1N1CCOCC1 | HeLa | cell growth or viability |  |  |  | CC50 | > 50 µM
O=C(Nc1ccc(C2CCCCC2)cc1)C1(N2CCOCC2)CC1 |  | hepatocyte stability | cryopreserved mouse hepatocytes | 1 µM |  | hepatic clearance | 51 mL/min/kg
CC(C)(C)NCC(SS(=O)(=O)O)c1ccccc1 (centres unmarked) | Schistosoma mansoni | perfusion day 52 | infected Swiss Webster mice | 400 mg/kg single dose, dosed day 7 post-infection | reference: vehicle control | body weight decrease | -0.238%
